# Results gathered from unrelated publications.
# Protein sequences, listed by entry. Tags and fused reporters are not part of them. Chains listed by the source or under a name are the forms on record and can include a tag or linker. Residues count along the entry.
# UniProt Q8I719, whole entry: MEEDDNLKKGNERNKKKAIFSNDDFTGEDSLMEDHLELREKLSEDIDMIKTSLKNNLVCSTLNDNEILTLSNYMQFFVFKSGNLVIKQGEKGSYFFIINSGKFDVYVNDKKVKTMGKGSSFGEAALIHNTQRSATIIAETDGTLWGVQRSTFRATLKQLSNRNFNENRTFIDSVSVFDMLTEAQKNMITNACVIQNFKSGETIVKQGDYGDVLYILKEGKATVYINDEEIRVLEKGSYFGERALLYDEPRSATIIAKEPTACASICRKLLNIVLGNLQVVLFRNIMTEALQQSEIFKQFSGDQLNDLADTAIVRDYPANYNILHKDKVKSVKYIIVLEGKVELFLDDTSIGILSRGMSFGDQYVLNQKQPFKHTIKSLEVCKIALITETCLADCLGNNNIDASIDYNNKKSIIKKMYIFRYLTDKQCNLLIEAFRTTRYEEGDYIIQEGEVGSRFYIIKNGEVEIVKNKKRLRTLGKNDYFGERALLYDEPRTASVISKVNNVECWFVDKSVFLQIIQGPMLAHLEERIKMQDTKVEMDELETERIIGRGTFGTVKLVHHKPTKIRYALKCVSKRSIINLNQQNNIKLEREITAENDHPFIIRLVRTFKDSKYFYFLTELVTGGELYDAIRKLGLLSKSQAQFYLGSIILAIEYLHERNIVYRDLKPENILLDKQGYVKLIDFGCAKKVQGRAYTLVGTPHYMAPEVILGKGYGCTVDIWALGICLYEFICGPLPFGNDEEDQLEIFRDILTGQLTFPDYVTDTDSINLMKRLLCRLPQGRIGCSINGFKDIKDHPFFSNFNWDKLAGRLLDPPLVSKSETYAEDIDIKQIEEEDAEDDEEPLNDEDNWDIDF
# UniProt P37136, 32-574 limits assumed: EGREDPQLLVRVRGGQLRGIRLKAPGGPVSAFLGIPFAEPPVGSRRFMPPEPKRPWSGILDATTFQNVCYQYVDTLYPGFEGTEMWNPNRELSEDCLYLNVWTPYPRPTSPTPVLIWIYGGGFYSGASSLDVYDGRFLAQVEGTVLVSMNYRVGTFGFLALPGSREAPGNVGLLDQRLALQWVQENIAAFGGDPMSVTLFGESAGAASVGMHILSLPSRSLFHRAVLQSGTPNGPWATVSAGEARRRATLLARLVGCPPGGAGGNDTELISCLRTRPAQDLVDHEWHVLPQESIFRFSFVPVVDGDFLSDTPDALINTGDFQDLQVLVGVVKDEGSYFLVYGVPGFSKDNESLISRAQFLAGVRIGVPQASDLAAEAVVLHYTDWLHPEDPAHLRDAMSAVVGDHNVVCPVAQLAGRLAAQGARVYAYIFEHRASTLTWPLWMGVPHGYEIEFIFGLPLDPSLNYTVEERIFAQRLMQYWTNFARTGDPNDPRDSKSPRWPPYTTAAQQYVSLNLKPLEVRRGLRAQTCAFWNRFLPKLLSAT
# UniProt P08510, 1-655 with tags or gaps DEL6-46: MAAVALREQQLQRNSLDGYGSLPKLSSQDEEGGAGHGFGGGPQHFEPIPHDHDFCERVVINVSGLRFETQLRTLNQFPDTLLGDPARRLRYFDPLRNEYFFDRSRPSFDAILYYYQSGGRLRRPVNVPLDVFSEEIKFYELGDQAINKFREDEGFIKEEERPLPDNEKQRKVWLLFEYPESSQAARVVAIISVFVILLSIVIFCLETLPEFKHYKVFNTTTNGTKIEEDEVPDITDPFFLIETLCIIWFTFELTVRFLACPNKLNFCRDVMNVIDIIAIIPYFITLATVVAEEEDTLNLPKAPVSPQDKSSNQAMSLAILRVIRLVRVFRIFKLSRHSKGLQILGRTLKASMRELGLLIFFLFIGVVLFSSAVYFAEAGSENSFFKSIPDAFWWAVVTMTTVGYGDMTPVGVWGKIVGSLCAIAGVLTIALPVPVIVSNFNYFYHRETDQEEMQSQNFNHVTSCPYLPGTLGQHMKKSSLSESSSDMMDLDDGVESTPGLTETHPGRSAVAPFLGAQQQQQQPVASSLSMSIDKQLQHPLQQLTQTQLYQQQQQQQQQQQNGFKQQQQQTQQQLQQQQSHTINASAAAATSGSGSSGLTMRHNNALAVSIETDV
# Values joined by “and” are separate records of one study, mostly repeats; a detail may differ. Numbers after ± are the reported error.
# PKG: cGMP-dependent protein kinase (PKG, Plasmodium falciparum, UniProt Q8I719)
SMILES,tested on,test,system,conditions,how to read,measurement,result
Cc1ccccc1S(=O)(=O)Nc1cccc(C(=O)NC2CCN(c3ncnc4[nH]cnc34)CC2)c1,SARS-CoV-2,,Wuhan-Hu-1,0.2743 µM,baseline: untreated infected cells,relative infection,67.1%
CC[C@H](C)[C@H](NC(=O)[C@H](C)NC(=O)[C@H](CCC(=O)O)NC(=O)[C@H](CCC(=O)O)NC(=O)[C@H](CC(C)C)NC(=O)[C@H](CCCCN)NC(=O)[C@H](CCCCN)NC(=O)[C@H](CCSC)NC(=O)[C@H](CCC(=O)O)NC(=O)[C@H](Cc1ccc(O)cc1)NC(=O)[C@H](CCC(=O)O)NC(=O)[C@H](CC(C)C)NC(=O)[C@H](CC(=O)O)NC(=O)[C@H](CC(C)C)NC(=O)[C@H](Cc1ccccc1)NC(=O)[C@@H](NC(=O)[C@@H](NC(=O)[C@H](CC(N)=O)NC(=O)[C@@H](NC(=O)[C@H](CCC(N)=O)NC(=O)[C@H](CC(=O)O)NC(=O)[C@H](CC(C)C)NC(=O)[C@@H](N)CO)[C@@H](C)CC)C(C)C)[C@@H](C)O)C(=O)N[C@@H](CCCCN)C(=O)N[C@@H](CCCCN)C(=O)N[C@@H](CC(C)C)C(=O)N[C@@H](CCC(=O)O)C(=O)N[C@@H](CCC(=O)O)C(=O)N[C@H](C(=O)N[C@@H](Cc1ccc(O)cc1)C(=O)N[C@H](C(=O)N[C@@H](CC(=O)O)C(=O)N[C@@H](CC(C)C)C(=O)N[C@@H](CCCCN)C(=O)N[C@@H](CCC(=O)O)C(=O)N[C@@H](CC(C)C)C(=O)O)[C@@H](C)CC)[C@@H](C)O,SARS-CoV-2 XBB.1.5 pseudovirus,"pseudovirus infection, inhibitor, luciferase",Caco-2,24 h,,IC50,501 nM
O=C(NC1CCN(c2ncnc3[nH]cnc23)CC1)c1cccc(S(=O)(=O)Nc2ccc(Cl)cc2)c1,SARS-CoV-2,,Wuhan-Hu-1,66.67 µM,baseline: untreated infected cells,relative infection,29.2%
CCN(CC)Cc1onc(-c2cccc(Cl)c2)c1-c1ccnc(N[C@@H]2CCN(C(=O)c3ccn(C)n3)C2)n1,PKG,"kinase activity, inhibitor, IMAP",,"with: ATP 10 µM, FAM-PKAtide",,IC50,21 ± 11 nM
Cc1cc(C(=O)N[C@@H](Cc2cccc3ccccc23)C(=O)N[C@@H](CC(C)C)C(=O)N[C@H](C=O)C[C@@H]2CCCNC2=O)no1,Enterovirus A71,"viral replication, RT-qPCR",RD,three days,,EC90,20 ± 10 nM
CC[C@H](C)[C@H](NC(=O)[C@H](C)NC(=O)[C@H](CCC(=O)O)NC(=O)[C@H](CCC(=O)O)NC(=O)[C@H](CC(C)C)NC(=O)[C@H](CCCCN)NC(=O)[C@H](CCCCN)NC(=O)[C@H](CCSC)NC(=O)[C@H](CCC(=O)O)NC(=O)[C@H](Cc1ccc(O)cc1)NC(=O)[C@H](CCC(=O)O)NC(=O)[C@H](CC(C)C)NC(=O)[C@H](CC(=O)O)NC(=O)[C@H](CC(C)C)NC(=O)[C@H](Cc1ccccc1)NC(=O)[C@H](Cc1ccccc1)NC(=O)[C@@H](NC(=O)[C@H](CC(N)=O)NC(=O)[C@@H](NC(=O)[C@H](CCC(N)=O)NC(=O)[C@H](CC(=O)O)NC(=O)[C@H](CC(C)C)NC(=O)[C@@H](N)CO)[C@@H](C)CC)C(C)C)C(=O)N[C@@H](CCCCN)C(=O)N[C@@H](CCCCN)C(=O)N[C@@H](CC(C)C)C(=O)N[C@@H](CCC(=O)O)C(=O)N[C@@H](CCC(=O)O)C(=O)N[C@H](C(=O)N[C@@H](Cc1ccc(O)cc1)C(=O)N[C@H](C(=O)N[C@@H](CC(=O)O)C(=O)N[C@@H](CC(C)C)C(=O)N[C@@H](CCCCN)C(=O)N[C@@H](CCC(=O)O)C(=O)N[C@@H](CC(C)C)C(=O)O)[C@@H](C)CC)[C@@H](C)O,SARS-CoV-2 Gamma pseudovirus,"pseudovirus infection, inhibitor, luciferase",Caco-2,"24 h, dual mutations",,IC50,620 nM
CCOP(=O)(OCC)ON1C(=O)c2cccc3cccc(c23)C1=O,"Ache (Rattus norvegicus, UniProt P37136)","enzyme activity, inhibitor, discontinuous Ellman","rat, postnatal day 70, rat lung homogenate","15 min, 37 °C",,IC50,44 nM
CC[C@H](C)[C@@H]1NC(=O)[C@H](CCCNC(=N)N)NC(=O)[C@@H](N)CSSC[C@@H]2NC(=O)[C@@H]3CSSC[C@@H](C(=O)N[C@H](C(=O)O)C(C)C)NC(=O)[C@H](CCCCN)NC(=O)[C@H](CC(N)=O)NC(=O)[C@H](Cc4ccccc4)NC(=O)[C@H](CCCNC(=N)N)NC(=O)[C@H](CC(N)=O)NC(=O)[C@H](CSSC[C@H](NC(=O)[C@H](CCCCN)NC(=O)[C@H](CCC(N)=O)NC(=O)[C@H](CC(N)=O)NC(=O)[C@@H]4C[C@@H](O)CN4C1=O)C(=O)N[C@@H](Cc1ccccc1)C(=O)N[C@@H](CCC(N)=O)C(=O)N[C@@H](Cc1c[nH]cn1)C(=O)N[C@@H](CC(C)C)C(=O)N[C@@H](CC(=O)O)C(=O)N[C@@H](CC(=O)O)C(=O)N3)NC(=O)[C@H](CCCCN)NC(=O)[C@H](CCCNC(=N)N)NC(=O)[C@H](CO)NC2=O,"Sh (Drosophila melanogaster, UniProt P08510, del6-46)","potassium current, outside-out patch clamp",,"pulse application, zero voltage, internal K 15, with: 1 mM TEA",,Kd,250 ± 26 nM
CC[C@H](C)[C@H](NC(=O)[C@H](C)NC(=O)[C@H](CCC(=O)O)NC(=O)[C@H](CCC(=O)O)NC(=O)[C@H](CC(C)C)NC(=O)[C@H](CCCCN)NC(=O)[C@H](CCCCN)NC(=O)[C@H](CCSC)NC(=O)[C@H](CCC(=O)O)NC(=O)[C@H](Cc1ccc(O)cc1)NC(=O)[C@H](CCC(=O)O)NC(=O)[C@H](CC(C)C)NC(=O)[C@H](CC(=O)O)NC(=O)[C@H](CC(C)C)NC(=O)[C@H](Cc1ccccc1)NC(=O)[C@H](Cc1ccccc1)NC(=O)[C@@H](NC(=O)[C@H](CC(N)=O)NC(=O)[C@@H](NC(=O)[C@H](CCC(N)=O)NC(=O)[C@H](CC(=O)O)NC(=O)[C@H](CC(C)C)NC(=O)[C@@H](N)CO)[C@@H](C)CC)C(C)C)C(=O)N[C@@H](CCCCN)C(=O)N[C@@H](CCCCN)C(=O)N[C@@H](CC(C)C)C(=O)N[C@@H](CCC(=O)O)C(=O)N[C@@H](CCC(=O)O)C(=O)N[C@@H](CO)C(=O)N[C@@H](Cc1ccc(O)cc1)C(=O)N[C@H](C(=O)N[C@@H](CC(=O)O)C(=O)N[C@@H](CC(C)C)C(=O)N[C@@H](CCCCN)C(=O)N[C@@H](CCC(=O)O)C(=O)N[C@@H](CC(C)C)C(=O)O)[C@@H](C)CC,SARS-CoV-2 Gamma pseudovirus,"pseudovirus infection, inhibitor, luciferase",Caco-2,24 h,,IC50,615 nM
O=C(CCc1ccccc1)N1CCCC2(C1)Nc1cccnc1N=C2NC1CCCC1 (stereo not shown),HEK293,"cell viability, CellTiter-Glo",,72 h,,CC50,> 70000 nM
CC#Cc1ccc2c(=O)[nH]nc(Cc3ccc(F)c(C(=O)N4CCN(c5ccc(C#N)cn5)CC4)c3)c2c1,CT26,"western blot, measured: STAT1 and pSTAT1 (Tyr701)",,"concentration not given, 16 h",,protein level,increased
c1ccc2c(NC3CCNCC3)nc(NCc3ccc(CNCCCNC4CCCCC4)cc3)nc2c1,CEM,,,72 h,,CC50,> 50000 nM
CC(C)[C@H]1CC[C@@H](N2CCC3(CC2)C(=O)NCN3c2ccccc2)CC1,,twitch contraction,"NOP(+/+) and NOP(-/-) mice, mouse vas deferens",,baseline: NOP(+/+) over NOP(-/-),selectivity ratio,3
Cc1ccc(S(=O)(=O)Nc2cccc(C(=O)NC3CCN(c4ncnc5[nH]cnc45)CC3)c2)cc1,monkeypox virus E1/E12,,,3.125 µM,,inhibition,16.4% and 10.3%
O=C(O)CC1Sc2nnc(-c3cccs3)n2N=C1c1ccc(Cl)cc1 (stereo not shown),UGM of Corynebacterium diphtheriae,"enzyme activity, inhibitor",,,,Ki,77000 ± 37000 nM
Nc1ccc([As]=O)cc1 (stereo not shown),DLD-1,"cell viability, MTS",,,,IC50,2170 ± 210 nM
CS(=O)(=O)Cc1onc(-c2cccc(Cl)c2)c1-c1ccnc(N[C@@H]2CCN(C(=O)c3nccs3)C2)n1,PKG,"kinase activity, inhibitor, IMAP",,"with: ATP 10 µM, FAM-PKAtide",,IC50,14 ± 1 nM
O=[N+]([O-])c1cc([As](O)O)ccc1O,HCC1569,cell viability,,72 h,,IC50,9000 nM
COc1ccc(S(=O)(=O)Nc2cccc(C(=O)NC3CCN(c4ncnc5[nH]cnc45)CC3)c2)cc1,SARS-CoV-2,,Wuhan-Hu-1,2.469 µM,baseline: untreated infected cells,relative infection,51.6%
O=C(c1ccncc1)N1CCCC2(C1)Nc1ccccc1N=C2NC1CCCC1 (stereo not shown),HepG2,"cell viability, CellTiter-Glo",,72 h,,CC50,70000 nM
CC[C@H](C)[C@H](NC(=O)[C@H](C)NC(=O)[C@H](CCC(=O)O)NC(=O)[C@H](CCC(=O)O)NC(=O)[C@H](CC(C)C)NC(=O)[C@H](CCCCN)NC(=O)[C@H](CCCCN)NC(=O)[C@H](CCSC)NC(=O)[C@H](CCC(=O)O)NC(=O)[C@H](Cc1ccc(O)cc1)NC(=O)[C@H](CCC(=O)O)NC(=O)[C@H](CC(C)C)NC(=O)[C@H](CC(=O)O)NC(=O)[C@H](CC(C)C)NC(=O)[C@H](Cc1ccccc1)NC(=O)[C@@H](NC(=O)[C@@H](NC(=O)[C@H](CC(N)=O)NC(=O)[C@@H](NC(=O)[C@H](CCC(N)=O)NC(=O)[C@H](CC(=O)O)NC(=O)[C@H](CC(C)C)NC(=O)[C@@H](N)CO)[C@@H](C)CC)C(C)C)[C@@H](C)O)C(=O)N[C@@H](CCCCN)C(=O)N[C@@H](CCCCN)C(=O)N[C@@H](CC(C)C)C(=O)N[C@@H](CCC(=O)O)C(=O)N[C@@H](CCC(=O)O)C(=O)N[C@@H](C)C(=O)N[C@@H](Cc1ccc(O)cc1)C(=O)N[C@H](C(=O)N[C@@H](CC(=O)O)C(=O)N[C@@H](CC(C)C)C(=O)N[C@@H](CCCCN)C(=O)N[C@@H](CCC(=O)O)C(=O)N[C@@H](CC(C)C)C(=O)O)[C@@H](C)CC,SARS-CoV-2 Gamma pseudovirus,"pseudovirus infection, inhibitor, luciferase",Caco-2,24 h,,IC50,520 nM
O=C(NC1CCN(c2ncnc3[nH]cnc23)CC1)c1cccc(NS(=O)(=O)c2ccc([N+](=O)[O-])cc2)c1,SARS-CoV-2,,Wuhan-Hu-1,0.09145 µM,baseline: untreated infected cells,relative infection,74.9%

# Some of these lines once more:
SMILES,tested on,test,system,conditions,how to read,measurement,result
c1ccc2c(NC3CCNCC3)nc(NCc3ccc(CNCCCNC4CCCCC4)cc3)nc2c1,CEM,,,72 h,,CC50,> 50000 nM
CC[C@H](C)[C@H](NC(=O)[C@H](C)NC(=O)[C@H](CCC(=O)O)NC(=O)[C@H](CCC(=O)O)NC(=O)[C@H](CC(C)C)NC(=O)[C@H](CCCCN)NC(=O)[C@H](CCCCN)NC(=O)[C@H](CCSC)NC(=O)[C@H](CCC(=O)O)NC(=O)[C@H](Cc1ccc(O)cc1)NC(=O)[C@H](CCC(=O)O)NC(=O)[C@H](CC(C)C)NC(=O)[C@H](CC(=O)O)NC(=O)[C@H](CC(C)C)NC(=O)[C@H](Cc1ccccc1)NC(=O)[C@H](Cc1ccccc1)NC(=O)[C@@H](NC(=O)[C@H](CC(N)=O)NC(=O)[C@@H](NC(=O)[C@H](CCC(N)=O)NC(=O)[C@H](CC(=O)O)NC(=O)[C@H](CC(C)C)NC(=O)[C@@H](N)CO)[C@@H](C)CC)C(C)C)C(=O)N[C@@H](CCCCN)C(=O)N[C@@H](CCCCN)C(=O)N[C@@H](CC(C)C)C(=O)N[C@@H](CCC(=O)O)C(=O)N[C@@H](CCC(=O)O)C(=O)N[C@@H](CO)C(=O)N[C@@H](Cc1ccc(O)cc1)C(=O)N[C@H](C(=O)N[C@@H](CC(=O)O)C(=O)N[C@@H](CC(C)C)C(=O)N[C@@H](CCCCN)C(=O)N[C@@H](CCC(=O)O)C(=O)N[C@@H](CC(C)C)C(=O)O)[C@@H](C)CC,SARS-CoV-2 Gamma pseudovirus,"pseudovirus infection, inhibitor, luciferase",Caco-2,24 h,,IC50,615 nM
O=C(O)CC1Sc2nnc(-c3cccs3)n2N=C1c1ccc(Cl)cc1 (stereo not shown),UGM of Corynebacterium diphtheriae,"enzyme activity, inhibitor",,,,Ki,77000 ± 37000 nM
